Results gathered from unrelated publications.
Each line is one published result; not all experiments were run side by side. Several values in a cell are separate wells, animals, samples, runs or records. ± gives the spread as reported.

NC1(C(=O)N[C@@H](CCO)c2ccc(Cl)cc2)CCN(c2nc[nH]c3nccc2-3)CC1  Tmax (LC-MS/MS, non-compartmental; human patients, plasma; 160/400 mg cohort, cycle 0, median, added: enzalutamide): 2 h
Cc1cc(Nc2cc3ncccc3c(N[C@@H]3C[C@H]4CC[C@@H](C3)N4CCC#N)n2)n[nH]1  skin subcutaneous disorders incidence (healthy human subjects; oral, 1000 mg, 2 weeks, single ascending dose): 0%
c1cc(-c2ccc3ncnc(Nc4ncco4)c3c2)cc(N2CC3(COC3)C2)c1  CLint (human liver microsomes): 36 µL/min/mg
O=C1CC[C@H](N2Cc3cc(N4CCN(CC5CCN(c6ccc([C@@H]7c8ccc(O)cc8CC[C@@H]7c7ccccc7)cc6)CC5)CC4)ccc3C2=O)C(=O)N1  participants with TEAE dry lips (human; oral, 200 mg, added: dabigatran etexilate 75 mg): 0%
CC(C)=CCC/C(C)=C/CC/C(C)=C/CC[C@@](C)(O)CCC1=C(C)C(=O)C(C)=C(C)C1=O  AUC0-t ratio (human, plasma; oral, dose not given, added: itraconazole; reference: with over without itraconazole): 344%
C[C@@H](c1ncncc1F)[C@](O)(Cn1cncn1)c1ccc(F)cc1F  grade 1 TEAE (human; oral, 400 mg, drug interaction trial): 36.4%
C=CC(=O)NC1CCN(c2ncc3ncnc(Nc4ccc(Oc5ccc6c(c5)ncn6C)c(C)c4)c3n2)CC1  AUC0-∞ ratio (human, male, plasma; oral, 30 mg, adjusted geometric means; reference: fed over fasted): 74.9%
O=C(Cn1cnc([N+](=O)[O-])n1)Nc1ccc(N2CCOCC2)c(Cl)c1  logD (octanol/buffer; pH 7.4): 2.08
CCOC(=O)N1C[C@@H](c2ccc(Cl)cc2)N[C@@H](c2ccc(C(F)(F)F)cc2)C1  logD (shake-flask, 1-octanol/buffer; pH 7.4): > 4.7
O=c1ccc2ccc(O)cc2o1  CLint scaled (metabolic stability; mouse liver S9; 2 µM, pH 7.4): 2120 mL/min/kg
Cc1ccnc(NS(=O)(=O)c2ccc(NC(=O)c3cncc(Br)c3)cc2)n1  logD (octanol/buffer; pH 7.4): 1.16
Cc1cc(-c2nccc3c2ccn3CC(=O)Nc2ccc(-c3cnccn3)cn2)ccn1  subjects with skin abrasion TEAEs (human; MAD part, 20 mg once daily): 11.1%
COc1ccc2c3c([nH]c2c1)[C@H](CC(C)C)N1C(=O)[C@H](CC(=O)NC(C)C)NC(=O)[C@@H]1C3  kidney to body weight ratio (wild-type mouse; oral, 100 mg/kg daily, 23 days): 1.16% and 1.34%
COc1cc2nccc(Oc3ccc(NC(=O)NC4CC4)c(Cl)c3)c2cc1C(N)=O  Km (human liver microsomes; 30 min, pH 7.4): 27.8 µM
Cc1nc2ccc(OCc3ccc(C(F)(F)F)cc3)cc2[nH]1  tissue concentration (Balb/c mouse, male, liver; oral, 10 mg/kg, 4 h): 5250 ± 717 ng/g
O=C(N/N=C/c1ccccc1O)c1ccncc1  stability (ADS buffer; 115 µM, 7 days, -80 °C, long-term storage): 99%
C=CCn1c(=O)c2cnc(Nc3ccc(N4CCN(C)CC4)cc3)nc2n1-c1ccc2c(n1)[C@@](O)(CC)CC2  AUC(0-24) (A-427, female NOD/SCID mouse xenograft, plasma; oral, 40 mg/kg once daily): 14200 ng·h/mL
COc1cc(NC(=O)CSc2nncn2C)cc(OC)c1OC  logD (octanol/buffer; pH 7.4): 0.58
COc1ccc([C@H]2COC[C@H](c3ccc(-c4ccccc4)cc3)N2)cc1  logD (shake-flask, 1-octanol/buffer; pH 7.4): > 4.7
CC(C)C[C@H](NC(=O)[C@@H](Cc1c[nH]c2ccccc12)NC(=O)[C@H](Cc1ccc(O)cc1)NC(=O)[C@H](CO)NC(=O)[C@H](Cc1c[nH]c2ccccc12)NC(=O)[C@H](Cc1c[nH]cn1)NC(=O)[C@@H]1CCC(=O)N1)C(=O)N[C@@H](CCCNC(=N)N)C(=O)N1CCC[C@H]1C(=O)NCC(N)=O  patients, drug-related laboratory TEAEs (Chinese CPP children, overall; intramuscular, 22.5 mg, 12 months, day 1, month 6): 13.6%
CCc1cc(C(=O)NC)c2nccc(N3CCc4c(cc(Cn5ccnc5)cc4-c4cn(C)nc4C(F)(F)F)C3=O)c2c1  reticulocytes (Sprague Dawley rats; oral, 50 mg/kg once daily, 7 days; reference: red blood cells): 5.45 ± 1.06%
COc1ccc2c(c1)CN(C(=O)CCN1CCC(Cc3ccccc3)CC1)CC[S@@+]2[O-]  heart rate (telemetry; conscious dog; intravenous, 8 mg/kg, 24 h): 85 ± 14 beats/min
C[C@@H](O)CCOC(=O)C[C@@H](C)O  diastolic blood pressure (human; oral drink, 60 min post dose, mean): 66 mmHg
N[C@@H]1c2ccccc2OC12CCN(c1cnc3c(N4CCCc5ncccc54)n[nH]c3n1)CC2  AUC(0-tau) (advanced metastatic solid tumour patients, plasma; oral, 100 mg once daily, cycle 1 day 1, geometric mean): 5350 ng·h/mL
Cc1noc(C)c1-c1cc(C(O)(c2ccccn2)c2ccccn2)c2nc(C3CC3)[nH]c2c1  Ctau (human patients, plasma; oral, 3 mg, cycle 1 day 8, monotherapy): 131 ng/mL
CC(C)(C)c1ccc(O)c(CN(Cc2cc(C(C)(C)C)ccc2O)C2CCC(NC(N)=O)CC2)c1 (stereo not shown)  recovery (mouse brain; 2000 ng/g, 3 months, 4 °C, refrigerator storage): 96.34 ± 0.15%
COc1ncc(-c2nc3c(n2C(C)C)[C@H](c2ccc(Cl)cc2)N(c2cc(Cl)cn(C)c2=O)C3=O)c(OC)n1  median Tmax (human patients, plasma; oral, 25 mg, high-dose arm, cycle 2 day 1): 2.9 h
CCOc1c([C@H](C)n2nc(C)c3c(N)ncnc32)cc(Cl)c(F)c1[C@@H]1CNC(=O)C1  Cmax (patients with B-cell malignancies, plasma; oral, 20 mg, day 15, all cohorts, monotherapy): 1740 nM
CNC(=O)c1cc(Oc2ccc(NC(=O)Nc3cc(C(C)(C)C)nn3-c3ccc4ncccc4c3)c(F)c2)ccn1  patients with adverse events (item: any AESI, worst grade ≥2; human patients; oral, dose not given, high Cmax subgroup, cycles 1-2): 17%
CN(C(=O)C(C)(C)c1cc(C(F)(F)F)cc(C(F)(F)F)c1)c1cnc(N2C[C@H]3COCCN3C[C@H]2CO)cc1-c1ccc(F)cc1[14CH3]  cumulative radioactivity excreted (healthy men, urine and feces; oral, 120 mg, 288 h, added: [14C]-label; reference: dose): ~88.6%
CCc1c(-c2ccccc2)c(-c2ccccc2)nn1-c1ccccc1-c1cccc(OCC(=O)O)c1  concentration (Sprague-Dawley rat, bone; oral, 10 mg/kg, 4 h): 2050 ng/g and 1900 ng/g
CCC[C@@H](C)[C@H]1COC(C)(C)[C@@H](c2ccc(-c3ccccc3)cc2)N1  logD (shake-flask, 1-octanol/buffer; pH 7.4): > 4.7
CC(C)(C(=O)N1CCOc2c(C#N)cncc2C1)C(F)F  subjects with adverse event (item: eye disorders; human; oral, 20 mg twice daily, 14 days, multiple ascending dose): 0%
COC(=O)c1ccc([C@@H]2COC[C@H](c3ccc(NC(C)=O)cc3)N2)cc1  logD (shake-flask, 1-octanol/buffer; pH 7.4): > 4.7
CCCCOC(=O)N1CCN(C(=O)[C@H](CP(=O)(O)O)NC(=O)c2cc(N3CC[C@H](OC)C3)nc(-c3ccccc3)n2)CC1  change in PR interval (human; subcutaneous, 16 mg, 24 h post-dose; reference: baseline): -3.4 ± 11.9 ms
C[C@H]1Oc2cc(cnc2N)-c2c(nn(C)c2C#N)CN(C)C(=O)c2ccc(F)cc21  CL (population PK; normal renal function patients, plasma; oral, 100 mg once daily, cycle 1 day 15, steady state): 253 mL/min
CC(C)Nc1ccnc(Nc2cccc(-c3ccncc3)c2)n1  efflux ratio (MDCKII-WT cells; 10 µM, pH 7.4; reference: Papp B-A over A-B): 0.59
COc1ccc2nc(-c3ccccn3)c(N(C)c3ccc(F)cc3)n2c1  AUC(0-inf)/AUC(0-last) (male CD-1 mouse, fasted, plasma; oral, 50 mg/kg, added: 1-aminobenzotriazole 50 mg/kg): 102%
CC[C@H](C)[C@H](NC(=O)[C@H](Cc1ccccc1)NC(=O)[C@H](CCC(=O)O)NC(=O)[C@H](CCCCNC(=O)COCCOCCNC(=O)COCCOCCNC(=O)CC[C@H](NC(=O)CCCCCCCCCCCCCCCCC(=O)O)C(=O)O)NC(=O)[C@H](C)NC(=O)[C@H](C)NC(=O)[C@H](CCC(N)=O)NC(=O)CNC(=O)[C@H](CCC(=O)O)NC(=O)[C@H](CC(C)C)NC(=O)[C@H](Cc1ccc(O)cc1)NC(=O)[C@H](CO)NC(=O)[C@H](CO)NC(=O)[C@@H](NC(=O)[C@H](CC(=O)O)NC(=O)[C@H](CO)NC(=O)[C@@H](NC(=O)[C@H](Cc1ccccc1)NC(=O)[C@@H](NC(=O)CNC(=O)[C@H](CCC(=O)O)NC(=O)C(C)(C)NC(=O)[C@@H](N)Cc1cnc[nH]1)[C@@H](C)O)[C@@H](C)O)C(C)C)C(=O)N[C@@H](C)C(=O)N[C@@H](Cc1c[nH]c2ccccc12)C(=O)N[C@@H](CC(C)C)C(=O)N[C@H](C(=O)N[C@@H](CCCNC(=N)N)C(=O)NCC(=O)N[C@@H](CCCNC(=N)N)C(=O)NCC(=O)O)C(C)C  QTcF change from baseline (12-lead Holter ECG; healthy humans; subcutaneous, 1.5 mg once weekly, 24 h, steady state; reference: placebo): 0 ms
CCN1/C(=C/C(C)=O)Sc2ccc(F)cc21  PR interval change (cynomolgus monkey; oral, 100 mg/kg, 1 h post-dose; reference: pre-dose): 99.2 ± 2.4%
[O]=[Co].[O]=[Co][O][Co]=[O]  cobalt concentration (rat, male, urine, 24-h collection; oral gavage, single, 300 mg/kg (220 mg Co/kg), day 3, vehicle 0.5% HPMC): 307 µg/L
Cc1ccc([C@@H]2O[C@H](CO)[C@@H](O)[C@H](O)[C@H]2O)cc1Cc1ccc(-c2ccc(F)cc2)s1  urinary chloride excretion change (Japanese type 2 diabetes patients; 200 mg, day 4, 24 h urine collection; reference: baseline): -15.4 mEq
c1ccc(CN2CCCN3CCN(Cc4ccccc4)CCCN(CC2)Cc2cccc(n2)C3)cc1  intact complex (64Cu complex in rat plasma; 24 h, 37 °C): 97%
O=C[C@H]([18F])[C@@H](O)[C@H](O)[C@H](O)CO  tissue uptake (Kunming mice, turpentine inflammation, inflamed muscle; intravenous, 0.74 MBq, 60 min): 6.93 ± 0.9 %ID/g
CC(C)C[C@H](NC(=O)[C@H]1O[C@@H]1C(=O)O)C(=O)NCCCCN=C(N)N  GSH adduct formation (PBS; 100 µM, 23 h, pH 7.45, 37 °C, added: GSH 5 mM): 64%
C[C@@H](N)C1CCN(S(=O)(=O)c2cccc3cnccc23)CC1  participants with dizziness (healthy volunteers; 75 mg, fasted): 16.7%
N#Cc1ccc2c(c1)[C@H]1CCCN(C(=O)c3ccc4[nH]cnc4c3)[C@H]1C2  maximum ACTH level (human; 40 mg, end of trial): 14.4 pmol/L
Cc1cc(C)c(CNC(=O)c2cc(Cl)c3c(c2C)O[C@@](C)([C@H]2CC[C@H](N(C)C)CC2)O3)c(=O)[nH]1  grade ≥3 adverse event Anemia (relapsed/refractory NHL patients; oral, 200 mg once daily, onset after cycle 1 day 1): 25%
C[C@@H]1CCO[C@H]2Cn3cc(C(=O)NCc4ccc(F)cc4F)c(=O)c(O[C@@H]4O[C@H](C(=O)O)[C@@H](O)[C@H](O)[C@H]4O)c3C(=O)N12  Ctau (human, normal renal function, plasma; steady state): 200 ng/mL
Cc1cc(NC2CCN(C(=O)OC3CCN(C(=O)/C=C/CN(C)C)C3)CC2)n2ncc(C(C)C)c2n1 (stereo not shown)  patients with adverse events (patients with advanced solid tumours; dose not given, QD arm, any grade): 98%
Cc1cccc([C@H]2N[C@H](c3ccc4ccccc4c3)COC2(C)C)c1  logD (shake-flask, 1-octanol/buffer; pH 7.4): > 4.7
O=C(Nc1nc2cccc(-c3ccc(CN4CCS(=O)(=O)CC4)cc3)n2n1)C1CC1  treatment-emergent adverse events (item: cystitis; human rheumatoid arthritis patients; oral, 200 mg once daily, 4 weeks, regardless of relatedness): 0%
CNc1ccc(-c2nc3ccc(O)cc3s2)cc1 [carbon-11 labelled]  SUV (ex vivo biodistribution; APP/PS1 mouse, AD model, heart; intravenous, 30 min): 0.441 ± 0.424
COc1ccc2c(=O)n(C)c(-c3ccccc3)nc2c1  tissue/plasma ratio (male Sprague-Dawley rat, testis; oral, 30 mg/kg, 4 h; reference: testis over plasma): 11
COc1nc(-c2cc(C)c(N[C@@H](C)c3c(F)cc(F)cc3F)nn2)ccc1-n1cnc(C)c1  brain concentration (C57BL/6J mice, male, brain; oral, 50 mg/kg daily for 9 days, 4 h after last dose): 13200 ng/g

Excerpt of the above:
C[C@@H](N)C1CCN(S(=O)(=O)c2cccc3cnccc23)CC1  participants with dizziness (healthy volunteers; 75 mg, fasted): 16.7%
C[C@@H]1CCO[C@H]2Cn3cc(C(=O)NCc4ccc(F)cc4F)c(=O)c(O[C@@H]4O[C@H](C(=O)O)[C@@H](O)[C@H](O)[C@H]4O)c3C(=O)N12  Ctau (human, normal renal function, plasma; steady state): 200 ng/mL
O=c1ccc2ccc(O)cc2o1  CLint scaled (metabolic stability; mouse liver S9; 2 µM, pH 7.4): 2120 mL/min/kg
N#Cc1ccc2c(c1)[C@H]1CCCN(C(=O)c3ccc4[nH]cnc4c3)[C@H]1C2  maximum ACTH level (human; 40 mg, end of trial): 14.4 pmol/L
COc1ccc2c(c1)CN(C(=O)CCN1CCC(Cc3ccccc3)CC1)CC[S@@+]2[O-]  heart rate (telemetry; conscious dog; intravenous, 8 mg/kg, 24 h): 85 ± 14 beats/min
